{"data": "Experimental data from different studies", "note": "Each numbered part is a random draw from the data of one study; scales do not carry over between parts. Changes are numbered by the printed parent chain."}
{"data": "Series 1", "target": "Histone acetyltransferase KAT6A, both winged helices, GST fusion (KAT6A, Homo sapiens, UniProt Q92794, residues 1-181)", "technique": "protein binding microarray", "molecule type": "double-stranded DNA, one strand shown", "matrix": "in vitro", "tested at": "not given", "notes": "8-mer, flanks averaged, mean of 2 arrays, mostly near background", "reference": "not given", "reading": "higher = stronger binding", "Residues (chain)": "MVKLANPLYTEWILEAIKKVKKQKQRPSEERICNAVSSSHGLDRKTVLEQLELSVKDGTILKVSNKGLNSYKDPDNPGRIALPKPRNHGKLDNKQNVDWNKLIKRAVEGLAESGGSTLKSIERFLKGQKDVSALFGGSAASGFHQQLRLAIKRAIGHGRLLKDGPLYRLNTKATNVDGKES"}
{"Oligonucleotide": "CCCTGCGG", "E-score": 0.0379}
{"Oligonucleotide": "GAGGGACC", "E-score": -0.132}
{"Oligonucleotide": "ATAATAGG", "E-score": -0.0512}
{"Oligonucleotide": "CCCGTACC", "E-score": 0.219}
{"Oligonucleotide": "TAAATTCA", "E-score": -0.152}
{"Oligonucleotide": "AGAGGCAA", "E-score": -0.141}
{"Oligonucleotide": "AAGAAAGG", "E-score": -0.132}
{"Oligonucleotide": "CCGGTAAA", "E-score": 0.278}
{"Oligonucleotide": "ATAGATCG", "E-score": -0.0289}
{"Oligonucleotide": "ACGTGGCT", "E-score": -0.0715}
{"Oligonucleotide": "AGTAGAAG", "E-score": -0.197}
{"Oligonucleotide": "GGGGAAGA", "E-score": -0.121}
{"Oligonucleotide": "CTACAACA", "E-score": -0.094}
{"Oligonucleotide": "CGATTCAA", "E-score": -0.0106}
{"Oligonucleotide": "GCCCACAC", "E-score": -0.0194}
{"Oligonucleotide": "AATTGTAG", "E-score": -0.0316}
{"Oligonucleotide": "AGCGTAAG", "E-score": 0.159}
{"Oligonucleotide": "TCTGTAAA", "E-score": 0.0909}
{"Oligonucleotide": "AACGGATA", "E-score": 0.279}
{"Oligonucleotide": "AAAAGGAG", "E-score": -0.0803}
{"Oligonucleotide": "ACCGGCTG", "E-score": 0.0914}
{"Oligonucleotide": "GGCCAGGA", "E-score": -0.0876}
{"Oligonucleotide": "ACTCTGGA", "E-score": -0.066}
{"Oligonucleotide": "GAAACACA", "E-score": 0.167}
{"Oligonucleotide": "TACTAGAA", "E-score": 0.03}
{"data": "Series 2", "target": "CCND3, cyclin fold, Cln2 fusion (human)", "technique": "yeast growth competition, sequencing", "matrix": "yeast", "notes": "weak parent motif", "reference": "not given", "reading": "higher = stronger binding", "parent": "SGO1 docking peptide (human); PLAKRALKYTDEK; partner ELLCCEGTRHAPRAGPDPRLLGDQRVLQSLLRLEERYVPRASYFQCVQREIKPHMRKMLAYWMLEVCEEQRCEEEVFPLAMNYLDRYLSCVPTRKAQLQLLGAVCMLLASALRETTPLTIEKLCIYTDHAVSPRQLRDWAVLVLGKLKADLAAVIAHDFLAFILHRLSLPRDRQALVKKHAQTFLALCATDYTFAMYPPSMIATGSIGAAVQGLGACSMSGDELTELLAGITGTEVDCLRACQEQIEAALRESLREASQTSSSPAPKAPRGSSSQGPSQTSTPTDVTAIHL"}
{"Change": "PLAKRALKATDEK [Y9A]", "normalised enrichment score": 0.367}
{"Change": "ALAKRALKYTDEK [P1A]", "normalised enrichment score": -0.0376}
{"Change": "PLAKRALKYTAEK [D11A]", "normalised enrichment score": -0.0419}
{"Change": "PLAKRALAYTDEK [K8A]", "normalised enrichment score": 0.303}
{"Change": "PLAKRALKYTDAK [E12A]", "normalised enrichment score": 0.247}
{"Change": "PLAKRALKYADEK [T10A]", "normalised enrichment score": 0.098}
{"data": "Series 3", "target": "Sal-like protein 4, full length isoform A (SALL4, Homo sapiens, UniProt Q9UJQ4, residues 1-1053)", "technique": "universal PBM", "molecule type": "double-stranded DNA, one strand shown", "matrix": "in vitro", "tested at": "600 nM", "notes": "8-mer, flanks averaged, mean of replicates", "reading": "higher = stronger binding", "chain of UniProt Q9UJQ4 (whole entry, looked up)": "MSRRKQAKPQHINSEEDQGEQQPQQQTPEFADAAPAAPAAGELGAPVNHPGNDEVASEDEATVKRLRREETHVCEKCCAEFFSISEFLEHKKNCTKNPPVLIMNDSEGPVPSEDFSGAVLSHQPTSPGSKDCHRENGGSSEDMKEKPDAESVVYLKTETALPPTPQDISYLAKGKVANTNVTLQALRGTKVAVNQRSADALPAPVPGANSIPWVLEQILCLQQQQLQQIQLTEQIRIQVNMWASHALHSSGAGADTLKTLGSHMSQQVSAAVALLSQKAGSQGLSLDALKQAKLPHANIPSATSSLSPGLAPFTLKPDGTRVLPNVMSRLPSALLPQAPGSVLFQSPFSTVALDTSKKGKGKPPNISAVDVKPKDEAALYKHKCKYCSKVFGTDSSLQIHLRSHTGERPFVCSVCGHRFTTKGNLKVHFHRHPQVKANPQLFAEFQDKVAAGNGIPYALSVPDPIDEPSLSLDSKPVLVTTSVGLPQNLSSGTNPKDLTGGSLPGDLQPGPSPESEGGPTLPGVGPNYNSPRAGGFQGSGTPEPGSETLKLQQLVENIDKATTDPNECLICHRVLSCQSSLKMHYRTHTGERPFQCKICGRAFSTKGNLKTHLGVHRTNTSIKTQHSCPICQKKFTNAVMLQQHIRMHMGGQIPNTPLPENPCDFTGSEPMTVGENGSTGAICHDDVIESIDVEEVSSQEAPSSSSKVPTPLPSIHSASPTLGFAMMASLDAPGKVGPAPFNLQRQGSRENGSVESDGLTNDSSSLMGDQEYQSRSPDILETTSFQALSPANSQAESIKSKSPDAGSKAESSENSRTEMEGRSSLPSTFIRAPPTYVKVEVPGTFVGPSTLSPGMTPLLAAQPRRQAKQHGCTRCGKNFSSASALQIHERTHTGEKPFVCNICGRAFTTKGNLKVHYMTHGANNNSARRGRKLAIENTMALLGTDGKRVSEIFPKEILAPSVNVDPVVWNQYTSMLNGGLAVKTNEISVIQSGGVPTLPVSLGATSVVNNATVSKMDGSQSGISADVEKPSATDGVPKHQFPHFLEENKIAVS"}
{"Oligonucleotide": "CACGTCCC", "E-score": -0.3}
{"Oligonucleotide": "AAAGTAGC", "E-score": 0.0629}
{"Oligonucleotide": "ATCGCACG", "E-score": -0.0422}
{"Oligonucleotide": "TCTCAGCA", "E-score": -0.114}
{"Oligonucleotide": "ACGTTCTA", "E-score": 0.0402}
{"Oligonucleotide": "AGCATTAA", "E-score": 0.251}
{"Oligonucleotide": "CGCTAAAG", "E-score": -0.0211}
{"Oligonucleotide": "CATGGATC", "E-score": -0.0306}
{"Oligonucleotide": "CGTATTGA", "E-score": 0.124}
{"Oligonucleotide": "CACGAGAA", "E-score": -0.149}
{"Oligonucleotide": "CCACCGGA", "E-score": -0.0833}
{"Oligonucleotide": "TGACACAA", "E-score": 0.163}
{"Oligonucleotide": "GCACAAAA", "E-score": 0.119}
{"Oligonucleotide": "ATCCCCAC", "E-score": -0.136}
{"Oligonucleotide": "CCCGTGCC", "E-score": -0.373}
{"Oligonucleotide": "GGGACAAC", "E-score": -0.264}
{"Oligonucleotide": "AATCTATG", "E-score": 0.224}
{"data": "Series 4", "target": "ABI1, truncated, D143A, DHFR fusion (Arabidopsis thaliana)", "technique": "DHFR PCA, deep sequencing", "matrix": "yeast", "notes": "methotrexate growth selection, single substitutions", "together with": "(+)-ABA 2500 µM", "reference": "wild-type fitted maximum", "reading": "higher = stronger binding", "parent": "PYL1, truncated, DHFR fusion (Arabidopsis thaliana); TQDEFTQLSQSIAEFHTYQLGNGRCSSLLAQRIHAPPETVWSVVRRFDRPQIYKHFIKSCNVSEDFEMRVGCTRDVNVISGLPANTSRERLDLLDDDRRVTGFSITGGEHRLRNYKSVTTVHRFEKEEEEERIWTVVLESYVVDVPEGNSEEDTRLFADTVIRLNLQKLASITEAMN"}
{"Change": "A35W", "relative binding score [%]": 50.1}
{"Change": "D92A", "relative binding score [%]": 85}
{"Change": "F47Y", "relative binding score [%]": 85.3}
{"Change": "S117K", "relative binding score [%]": 29}
{"Change": "Q7N", "relative binding score [%]": 102}
{"Change": "R163P", "relative binding score [%]": -7.33}
{"Change": "E174R", "relative binding score [%]": 89.6}
{"Change": "V142T", "relative binding score [%]": 95.9}
{"Change": "L94P", "relative binding score [%]": -0.669}
{"Change": "R99Q", "relative binding score [%]": 93.9}
{"data": "Series 5", "target": "Ras GTPase-activating protein-binding protein 1, full length (G3BP1, Homo sapiens, UniProt Q13283)", "technique": "RNA Bind-n-Seq", "molecule type": "RNA", "matrix": "in vitro", "tested at": "200 nM", "notes": "whole 134-nt RNA, ends assumed", "together with": "150 mM LiCl", "reference": "input library", "reading": "higher = stronger binding", "all molecules": "7-deaza-guanosine replaces G", "chain of UniProt Q13283 (whole entry, looked up)": "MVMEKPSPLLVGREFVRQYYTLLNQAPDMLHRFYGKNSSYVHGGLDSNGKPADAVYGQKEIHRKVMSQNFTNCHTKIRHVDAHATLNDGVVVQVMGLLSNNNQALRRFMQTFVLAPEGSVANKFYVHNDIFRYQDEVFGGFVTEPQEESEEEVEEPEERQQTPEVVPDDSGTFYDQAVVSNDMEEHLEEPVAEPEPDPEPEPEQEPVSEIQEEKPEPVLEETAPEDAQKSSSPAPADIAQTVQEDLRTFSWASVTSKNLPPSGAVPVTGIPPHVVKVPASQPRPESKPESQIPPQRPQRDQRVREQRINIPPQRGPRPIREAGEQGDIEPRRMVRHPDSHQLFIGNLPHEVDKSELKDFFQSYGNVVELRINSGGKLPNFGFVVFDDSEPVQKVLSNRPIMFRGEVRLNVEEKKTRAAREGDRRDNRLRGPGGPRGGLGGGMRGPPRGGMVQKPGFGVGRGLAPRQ"}
{"Oligonucleotide": "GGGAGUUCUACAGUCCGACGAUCAAGUCCUGUGCUACACAUCGUAUGUACCGAAUCGGGAAAGGGUGGGUUUUUUUGGGAAAGUAUUAUGUUACGCCGUUCGGAUCUGCACUUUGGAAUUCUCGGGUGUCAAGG", "log2 enrichment": -0.666}
{"Oligonucleotide": "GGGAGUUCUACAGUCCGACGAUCCACAGACAACACGCACCCACACAGACACAGAGGGAAGGGGUUGGGAUGGGGAAAGGGUGCACAGCAGGGCGGGGUAGGACCCCAGCCCCUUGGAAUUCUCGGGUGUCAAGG", "log2 enrichment": 0.00159}
{"Oligonucleotide": "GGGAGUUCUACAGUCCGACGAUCAAGUCCUGUGCUACACAUCGUAUGUACCGAAUCGGAAAAAAAGGUGGAAAAAAAGGAAAGUAUUAUGUUACGCCGUUCGGAUCUGCACUUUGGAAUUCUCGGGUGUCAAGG", "log2 enrichment": -1.6}
{"Oligonucleotide": "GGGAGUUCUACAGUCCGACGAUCCACAGACAACACGCACCCACACACACACAGAGGGAAGGGGUUGGGAUGGGGACAGGGUGCACAGCAGGGCGGGGUAGGACCCCAGCCCCUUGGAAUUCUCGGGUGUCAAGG", "log2 enrichment": -0.328}
{"Oligonucleotide": "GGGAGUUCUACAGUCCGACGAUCAAGAUUUAGAGAUGAAUUAAAUUUAAUUAGGGGUUGCUAAGAAGCGAGCACUGACCAGAUAAGAAUGCUGGUUUUCCUAAAUGCAGUGAAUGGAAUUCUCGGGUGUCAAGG", "log2 enrichment": -1.07}
{"Oligonucleotide": "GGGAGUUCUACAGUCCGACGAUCACCAUGCAGGUGGGCAUCUUUGGGAAGUGGGGCAAGGGGGGAAUAGGGAGGGGGGUAACACUUUGGGAACAGGUGGUCCCAGGUCGUUUCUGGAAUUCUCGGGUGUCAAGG", "log2 enrichment": 0.383}
{"Oligonucleotide": "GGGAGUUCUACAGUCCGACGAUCGUCCUGUGCUACACAUCGUAUGUACCGAAUCGGGGUUUUUUUGGGGAGGGGAAAGGGGAAAGUAUUAUGUUACGCCGUUCGGAUCUGCACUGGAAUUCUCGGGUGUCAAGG", "log2 enrichment": 0.31}
{"Oligonucleotide": "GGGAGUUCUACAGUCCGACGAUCUGUGUCUUGCUGAAUCAGGGCUCUCUUAUCCCUGCCAUCGACUUACAGUGGGAAGAAGAUCUUCACCUGCACAGACCCGGGAACAGUCGGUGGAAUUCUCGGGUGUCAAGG", "log2 enrichment": -1.59}
{"Oligonucleotide": "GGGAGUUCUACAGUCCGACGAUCUAACUUUAGAGGAGGAUCUGAUGGAUAUGGCAGUGGACGUGGAUUUGGGGAUGGCUAUAAUGGGUAUGGAGGGGGACCUGGAGGUGGCAAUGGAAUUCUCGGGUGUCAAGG", "log2 enrichment": 0.0359}
{"Oligonucleotide": "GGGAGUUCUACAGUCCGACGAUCCUCAAGUCCUGUGCUACACAUCGUAUGUACCGAAUCGGGAAGGAAGGAAGGGGAAAGUAUUAUGUUACGCCGUUCGGAUCUGCACUUCCAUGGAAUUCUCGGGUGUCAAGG", "log2 enrichment": -0.343}
{"Oligonucleotide": "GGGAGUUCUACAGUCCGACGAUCAAGUCCUGUGCUACACAUCGUAUGUACCGAAUCGGGAGGGAAAGGGAAAAAAAGGGAAAGUAUUAUGUUACGCCGUUCGGAUCUGCACUUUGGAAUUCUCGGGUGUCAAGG", "log2 enrichment": 0.446}
{"note": "Repeated from above (series 1):"}
{"Oligonucleotide": "AGTAGAAG", "E-score": -0.197}
{"Oligonucleotide": "GGGGAAGA", "E-score": -0.121}
{"Oligonucleotide": "CTACAACA", "E-score": -0.094}
{"Oligonucleotide": "CGATTCAA", "E-score": -0.0106}
{"Oligonucleotide": "GCCCACAC", "E-score": -0.0194}
{"Oligonucleotide": "AATTGTAG", "E-score": -0.0316}
{"Oligonucleotide": "AGCGTAAG", "E-score": 0.159}
{"Oligonucleotide": "TCTGTAAA", "E-score": 0.0909}
{"Oligonucleotide": "AACGGATA", "E-score": 0.279}
{"Oligonucleotide": "AAAAGGAG", "E-score": -0.0803}
